# Results collected from several papers.
# Lines come from different studies, so protocols differ. ± marks the error that the study gave.
# Chain of UniProt Q92973 (whole entry, looked up): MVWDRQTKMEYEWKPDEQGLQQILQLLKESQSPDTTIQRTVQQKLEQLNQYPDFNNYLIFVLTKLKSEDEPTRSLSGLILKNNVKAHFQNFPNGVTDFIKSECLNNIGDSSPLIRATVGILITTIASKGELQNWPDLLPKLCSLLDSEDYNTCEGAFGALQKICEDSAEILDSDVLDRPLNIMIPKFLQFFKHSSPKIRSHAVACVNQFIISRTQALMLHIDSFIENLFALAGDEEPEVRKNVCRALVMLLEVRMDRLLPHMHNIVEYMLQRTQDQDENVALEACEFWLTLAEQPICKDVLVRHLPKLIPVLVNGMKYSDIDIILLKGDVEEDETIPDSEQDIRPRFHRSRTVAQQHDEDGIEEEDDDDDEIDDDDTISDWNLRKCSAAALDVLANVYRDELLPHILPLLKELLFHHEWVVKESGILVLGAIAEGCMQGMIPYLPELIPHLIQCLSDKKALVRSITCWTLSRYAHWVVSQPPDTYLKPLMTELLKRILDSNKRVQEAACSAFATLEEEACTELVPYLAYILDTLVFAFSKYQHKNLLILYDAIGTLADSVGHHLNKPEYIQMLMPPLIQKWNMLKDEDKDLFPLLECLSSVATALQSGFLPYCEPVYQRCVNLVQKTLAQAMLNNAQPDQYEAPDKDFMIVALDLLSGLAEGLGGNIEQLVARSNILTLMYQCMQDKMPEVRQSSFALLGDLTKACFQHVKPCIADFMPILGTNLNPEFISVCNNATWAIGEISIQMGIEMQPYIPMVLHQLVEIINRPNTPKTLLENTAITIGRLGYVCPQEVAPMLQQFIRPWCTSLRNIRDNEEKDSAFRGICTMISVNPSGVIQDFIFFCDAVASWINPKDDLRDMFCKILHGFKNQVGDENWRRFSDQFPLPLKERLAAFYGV
# Chain of UniProt P14091 (whole entry, looked up): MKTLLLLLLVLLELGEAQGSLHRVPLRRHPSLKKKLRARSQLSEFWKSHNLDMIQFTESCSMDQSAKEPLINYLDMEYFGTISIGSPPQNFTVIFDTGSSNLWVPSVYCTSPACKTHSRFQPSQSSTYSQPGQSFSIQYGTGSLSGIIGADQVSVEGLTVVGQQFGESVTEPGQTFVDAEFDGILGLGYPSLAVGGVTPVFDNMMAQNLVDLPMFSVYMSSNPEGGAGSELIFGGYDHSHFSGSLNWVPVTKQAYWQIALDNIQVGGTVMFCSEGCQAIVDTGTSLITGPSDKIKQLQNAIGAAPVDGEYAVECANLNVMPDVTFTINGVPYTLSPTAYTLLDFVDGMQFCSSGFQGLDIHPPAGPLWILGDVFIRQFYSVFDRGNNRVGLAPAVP
Compound,target or system,test,test system,setting,how to read,measurement,result
CCCCCCCC(=O)N[C@@H](CCCCN)C(=O)N[C@@H](CCCCN)C(=O)N[C@@H](C)C(=O)N[C@@H](CC(C)C)C(=O)N[C@@H](CCCCN)C(=O)N[C@@H](CC(C)C)C(=O)N[C@@H](C)C(=O)N[C@@H](CCCCN)C(=O)N[C@@H](CCCCN)C(=O)N1CCC[C@H]1C(=O)N[C@@H](CC(C)C)C(=O)N[C@@H](CCCCN)C(=O)N[C@@H](CC(C)C)C(=O)N[C@@H](CC(C)C)C(=O)N[C@@H](CCCCN)C(N)=O,,,"female ICR CD-1 mice, whole blood","intravenous bolus, 3 mg/kg",,AUC(0-inf),276 ± 29 ng·h/mL
O=C(c1ccc(F)c(F)c1Nc1ccc(I)cc1F)N1CC(O)([C@@H]2CCCCN2)C1,,,human patients,"oral, dose not given, dose escalation, suspension",,serious adverse events,23%
CCC[C@@](N)(CO)CCc1ccc(OCCCCCC(C)C)cc1,,,"male hound dog, plasma","oral, 2.5 mg/kg, solution, median",,half-life,18.8 h
COc1ccc2c(c1)CN(C(=O)CCN1CCC(Cc3ccccc3)CC1)CC[S@@+]2[O-],,,"female beagle dogs, chronic AV block","intravenous, 3 mg/kg, 1 h",relative to: before dosing,QTcF prolongation,20 ms
Cc1cccc(Cn2nc(C3CC3)c3c(NC(=O)c4cnc5cc(OCCN6CCN(C)CC6)ccn45)cccc32)n1,,refers to: ALT increased,human advanced solid tumours,"oral, dose not given, all-causality,, all doses",,adverse events incidence,36.8%
Cc1cc(C)c(CNC(=O)c2cc(Cl)c3c(c2C)O[C@@](C)([C@H]2CC[C@H](N(C)C)CC2)O3)c(=O)[nH]1,,,"human, relapsed/refractory NHL","concentration not given, all TEAEs, grade 5",,Hyperglycaemia incidence,0%
CC1(C)C(/C=C(\Cl)C(F)(F)F)C1C(=O)OC(C#N)c1cccc(Oc2ccccc2)c1 (centres unmarked),,refers to: CYP2C19,"human, age 6 months",,,enzyme contribution to clearance,0.34%
C[C@@H](NC(=O)N1C(=O)[C@H](Cc2ccnc(N)c2)[C@H]1C(=O)O)C1CCCCC1,,,healthy adult Chinese volunteers,"continuous intravenous infusion, 1.5 mg/kg/h, 5-day infusion, CTCAE 5.0 grading",,incidence of AEs leading to discontinuation,0%
COc1ccc(CCC2CCCC(CCc3ccc(OC)cc3)N2C[C@@H](O)CO)cc1.Cl (stereo in doubt),,,rabbit Purkinje fibres,"0.3 µM, cycle length 1 s",relative to: baseline,resting membrane potential change,1.4 ± 1.3 mV
COc1cc2c(Oc3ccc4[nH]c(C)cc4c3F)ccnc2cc1OCC1(N)CC1,,,paediatric recurrent refractory sarcoma,8 mg,,grade 3 Tinnitus,0%
CCN(CCO)CCCC(C)Nc1ccnc2cc(Cl)ccc12 (centres unmarked),,,newly diagnosed glioblastoma patients,"oral, 200 mg/dose, grade 1, added: radiotherapy and temozolomide",,fatigue patients,33%
CO[C@H]1C[C@@H]2CC[C@@H](C)[C@@](O)(O2)C(=O)C(=O)N2CCCC[C@H]2C(=O)O[C@H]([C@H](C)C[C@@H]2CC[C@@H](OC(=O)NCCOCCOCCOCCOCCOCCOCCOCCOCCC(=O)N3CCc4cc(Cn5nc(-c6ccc7oc(N)nc7c6)c6c(N)ncnc65)ccc4C3)[C@H](OC)C2)C[C@@H](O)[C@H](C)/C=C(\C)[C@@H](O)[C@@H](OC)C(=O)[C@H](C)C[C@H](C)/C=C/C=C/C=C/1C,,"phase 1 dose escalation, refers to: fatigue",advanced solid tumour patients,"intravenous, 8 mg weekly, grade ≥3",,dose-reducing adverse events,0%
CC/C(=C(\c1ccccc1)c1ccc(OCCN(C)C)cc1)c1ccccc1,,,"CD-1 mouse, male, plasma","intraperitoneal, 3 mg/kg",,half-life,7.73 h
O=C(Nc1ccccc1)C1CCN(C(=O)Oc2cccnc2)CC1,,,healthy women,"oral, 60 mg, 7 days",,Vascular disorders adverse events,14.3%
N#C/N=C1\SCCN1Cc1ccc(Cl)nc1,,,soil,"28 days, nominal 0.12",,concentration,0 mg/kg dry soil
CC(C)[C@H](N)C(=O)NCCCS(=O)(=O)O,,,human,"oral, 265 mg twice daily, 4 h post-dose, steady state, week 65",,plasma concentration,694 ng/mL
O=C1Nc2cc3[nH]nc(-c4ccncc4)c3cc2CN1Cc1ccccc1,,CTCAE v4.03,advanced solid tumour patients,"intravenous, 1.8 mg/kg, schedules 1/2",,patients with acneiform dermatitis,0%
C#C[C@]1(CO)O[C@@H](n2cnc3c(N)nc(F)nc32)C[C@@H]1O,,,monkey,"oral, 75 mg/kg every 3 days, 29 days",,tolerability,not toxic
COc1ccc2c(c1OC)C(=O)c1c(cc(C)c(O)c1OC)C2=O,HepaRG co-cultured with HK-2,MTT,,"66.67 µM, 24 h",relative to: untreated control,cell viability,94.9 ± 11%
O=S(=O)(Nc1ccccc1)c1ccc(NC(=S)Nc2ccccc2)cc1,,,"female mice, heart","oral, 80 mg/kg daily 14 days",relative to: body weight,relative organ weight,0.48%
COc1ccc(C[C@@H]2NC(=O)[C@H]([C@@H](C)O)NC(=O)[C@@H]3[C@@H]4CCN3C(=O)[C@@H]3Cc5cn(c6ccc(F)cc56)CCCCCCN(Cc5ccc(cc5)CCNC(=O)[C@]5(C)CCCN5C2=O)C(=O)CCC(=O)N[C@@H](C)C(=O)N[C@H](CNC(=O)CCCCC[N+](C)(C)C)C(=O)N[C@@H](Cc2cccc(c2)CNC(=O)CO4)C(=O)N3)cc1,,refers to: abdominal discomfort,human,dose not given,,participants with adverse event,2%
COc1c(O)cc(O)c2c(=O)cc(-c3ccccc3)oc12,,,"Sprague Dawley rat, plasma","oral, 3.34 g lyophilized powder/kg, low dose",,Tmax,3.3 ± 1.4 h
CC(C)[C@H](O)C(=O)N[C@H]1Cc2ccc3c(c2)[C@]2(C4=C(c5nc(CO)co5)N=C(O4)[C@H](C(C)(C)C)NC1=O)c1cc(F)ccc1N[C@@H]2O3,,,"NSG mice, brain","intravenous, 10 mg/kg, single dose at MTD, added: paclitaxel 40 mg/kg",,Cmax,47 ng/mL
CC(C)[C@@H]1NC(=O)CNC(=O)[C@H](CC(N)=O)NC(=O)[C@H](CCCNC(=N)N)NC(=O)[C@H](Cc2ccc(O)cc2)NC(=O)[C@H](C(C)C)NC(=O)[C@@H](NC(=O)[C@@H](NC(=O)[C@H](CC(N)=O)NC(=O)[C@H](Cc2c[nH]c3ccccc23)NC(=O)[C@H](C)NC(=O)[C@H](Cc2ccccc2)NC(=O)CN)C(C)C)CSSC[C@@H](C(=O)N[C@@H](Cc2cnc[nH]2)C(=O)N[C@@H](CCCNC(=N)N)C(=O)N[C@@H](CCCNC(=N)N)C(=O)N[C@@H](C)C(=O)N[C@@H](CC(N)=O)C(N)=O)NC(=O)[C@H](C(C)C)NC(=O)[C@H](CCCNC(=N)N)NC1=O,,,"ICR mouse, blood","intramammary, 10 mg/kg, day 5, 3 d dosing",,AST,26.2 ± 1.07 IU/L
CCCCCCCCCCCCCCCC(=O)N[C@@H](CCC(=O)NCCCC[C@H](NC(=O)[C@H](CC(=O)O)NC(=O)[C@H](CO)NC(=O)[C@@H](NC(=O)[C@H](Cc1ccccc1)NC(=O)[C@@H](NC(=O)CNC(=O)[C@H](CCC(N)=O)NC(=O)[C@H](CO)NC(=O)[C@@H](N)Cc1c[nH]cn1)[C@@H](C)O)[C@@H](C)O)C(=O)N[C@@H](CO)C(=O)N[C@@H](CCC(=O)O)C(=O)N[C@@H](Cc1ccc(O)cc1)C(=O)N[C@@H](CC(C)C)C(=O)N[C@@H](CC(=O)O)C(=O)N[C@@H](CO)C(=O)N[C@@H](CCC(=O)O)C(=O)N[C@@H](CCCNC(=N)N)C(=O)N[C@@H](C)C(=O)N[C@@H](CCCNC(=N)N)C(=O)N[C@@H](CC(=O)O)C(=O)N[C@@H](Cc1ccccc1)C(=O)N[C@H](C(=O)N[C@@H](C)C(=O)N[C@@H](Cc1c[nH]c2ccccc12)C(=O)N[C@@H](CC(C)C)C(=O)N[C@@H](CCC(=O)O)C(=O)N[C@@H](C)C(=O)NCC(=O)NCC(=O)O)C(C)C)C(=O)O,,refers to: Nausea,humans CrCl 45 to 60 mL/min,"subcutaneous, 100 µg single dose",,treatment-related adverse events,28.6%
O[C@H]1CCCN[C@@H]1CCCn1cnc2c(Cl)c(Cl)ccc21,,,"human, UGT2B7 ND+DD phenotype, plasma","oral, 150 mg twice daily, steady state",,AUCtau,1220 ng·h/mL
COc1ncccc1-c1cnn2ccc(N3CCN(C(=O)OC(C)C)CC3)nc12,,,"mouse, SNL model, brain","oral, 60 mg/kg, 120 min",,drug concentration,52 µM
CN1CCN(S(=O)(=O)c2cc([N+](=O)[O-])ccc2N(CCOS(C)(=O)=O)CCOS(C)(=O)=O)CC1,,,"naive NOD/SCID mice, pooled blood","intraperitoneal, 25 mg/kg, week 4",,phosphate,2.1 mmol/L
CC(C)c1nc(N(C)S(C)(=O)=O)nc(-c2ccc(F)cc2)c1/C=C/[C@@H](O)C[C@@H](O)CC(=O)O,,,healthy human subjects,"oral, dose not given, study CL-0537 safety set",,incidence of back pain,0%
COc1ccc(-c2c(-c3ccc(C#N)c(F)c3)nc(N3CCC(N)CC3)n(C)c2=O)cc1F,,refers to: ≥1 grade 3-4 TRAE,neuroendocrine neoplasm patients,"oral, 60 mg, dose expansion",,grade 3-4 TRAE incidence,44%
CCN1CCN(Cc2ccc(Nc3ncc(F)c(-c4cc(F)c5nc6n(c5c4)[C@H](C)CCC6)n3)nc2)CC1,,,advanced solid tumour patients,"dose not given, Phase Ia monotherapy",,"Hyperglycemia incidence, grade ≥3",8.3%
CCc1ccc(CC/C=C/c2ccc3c(c2)C(=O)CC3)cc1,,,"Sprague-Dawley rat, male, blood","oral, 450 mg/kg/day, 14 days",,large unstained cells,1.03%
C[C@]1(CO)Cc2ncn(-c3ccc(C#N)c(Cl)c3)c2C(=O)O1,,,"human, Chinese, plasma","80 mg single dose, median",,tmax,1.8 h
C[C@H]1CN(c2n[nH]c3nc(N[C@H]4CC[C@H](NS(=O)(=O)CCC(F)(F)F)CC4)ncc23)CCO1,"Transportin-1 (TNPO1, Homo sapiens, UniProt Q92973)","inhibitor, Kinobeads competition profiling",,0.8 µM,relative to: vehicle,relative abundance,1.29
Clc1ccc(-c2ccccc2)cc1,,,"Sprague-Dawley rats, female, serum","inhalation, 23 µg/rat, 0 h after exposure",,alanine aminotransferase,40 ± 5 U/L
NCCCC[C@@H]1NC(=O)[C@@H](Cc2c[nH]c3ccccc23)NC(=O)[C@H](c2ccccc2)NC(=O)[C@@H]2C[C@@H](OC(=O)NCCN)CN2C(=O)[C@H](Cc2ccccc2)NC(=O)[C@H](Cc2ccc(OCc3ccccc3)cc2)NC1=O,,,healthy human volunteers,600 µg twice daily,,subjects with injection-site pruritus,19%
CN1CC[C@@H](c2c(O)cc(O)c3c(=O)cc(-c4ccc(C(F)(F)F)cc4Cl)oc23)[C@@H]1CO,,refers to: Pyrexia,AML,"oral, 150 mg, intermittent dosing",,patients with adverse event,25%
C[C@H]1C[C@@H](N2C(=N)N[C@](C)(c3cccc(NC(=O)c4cccc(C#N)c4)c3Cl)CC2=O)CCO1,,,rat,"250 mg/kg, every other day",,monocytes count change,45%
COc1cc(Nc2ncc(F)c(Nc3ccc4c(n3)NC(=O)C(C)(C)O4)n2)cc(OC)c1OC,"Cathepsin E (CTSE, Homo sapiens, UniProt P14091)",,,,,IC50,> 10 µM
C[C@]1(O)C[C@@](N)(c2ccc(-c3nc4n(c3-c3ccccc3)COc3ccncc3-4)cc2)C1,,,"human, advanced or metastatic solid tumours","24 mg intermittent, phase I dose escalation",,patients with decreased appetite,25%
CC(=O)c1c(C)c2cnc(Nc3ccc(C4CCN(CCS(C)(=O)=O)CC4)cn3)nc2n(C2CCCC2)c1=O,,,"human, plasma","oral, 150 mg, day 1 single dose",,Vd,1160 L

# Excerpt of the above:
Compound,target or system,test,test system,setting,how to read,measurement,result
C#C[C@]1(CO)O[C@@H](n2cnc3c(N)nc(F)nc32)C[C@@H]1O,,,monkey,"oral, 75 mg/kg every 3 days, 29 days",,tolerability,not toxic
COc1ccc2c(c1OC)C(=O)c1c(cc(C)c(O)c1OC)C2=O,HepaRG co-cultured with HK-2,MTT,,"66.67 µM, 24 h",relative to: untreated control,cell viability,94.9 ± 11%
O=S(=O)(Nc1ccccc1)c1ccc(NC(=S)Nc2ccccc2)cc1,,,"female mice, heart","oral, 80 mg/kg daily 14 days",relative to: body weight,relative organ weight,0.48%
COc1ccc(C[C@@H]2NC(=O)[C@H]([C@@H](C)O)NC(=O)[C@@H]3[C@@H]4CCN3C(=O)[C@@H]3Cc5cn(c6ccc(F)cc56)CCCCCCN(Cc5ccc(cc5)CCNC(=O)[C@]5(C)CCCN5C2=O)C(=O)CCC(=O)N[C@@H](C)C(=O)N[C@H](CNC(=O)CCCCC[N+](C)(C)C)C(=O)N[C@@H](Cc2cccc(c2)CNC(=O)CO4)C(=O)N3)cc1,,refers to: abdominal discomfort,human,dose not given,,participants with adverse event,2%
